Assay results gathered from unrelated publications.
Numbered parts are unrelated; each lists some results of a single study. Substitutions count along the parent as printed.

Set 1 — technique: protein binding microarray; molecule type: double-stranded DNA, one strand shown; matrix: in vitro; tested at: not given; baseline: not given; direction: higher = stronger binding
Target: Histone acetyltransferase KAT6A, both winged helices, GST fusion (KAT6A, Homo sapiens, UniProt Q92794, residues 1-181)
Setting: 8-mer, flanks averaged, mean of 2 arrays, mostly near background
Residues (chain): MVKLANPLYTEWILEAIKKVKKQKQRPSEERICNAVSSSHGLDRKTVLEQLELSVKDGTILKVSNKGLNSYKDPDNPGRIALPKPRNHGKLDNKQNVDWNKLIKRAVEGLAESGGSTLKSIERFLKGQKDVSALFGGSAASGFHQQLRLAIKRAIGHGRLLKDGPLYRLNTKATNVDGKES
Strand | E-score
ACAAAAGT | -0.0749
CAATATCA | 0.00743
ACAAGTAA | -0.109
AGACTGCG | 0.0971
CCCGGACG | 0.105
CCCTATGA | -0.142
AATATTAC | 0.00568

Set 2 — technique: RNA Bind-n-Seq; molecule type: RNA; matrix: in vitro; tested at: 100 nM; baseline: input RNA pool; direction: higher = stronger binding
Target: RING finger protein unkempt homolog, zinc fingers 1-6, SBP tag (UNK, Homo sapiens, UniProt Q9C0B0, residues 30-357)
Sequence of UniProt Q9C0B0 (30-357, looked up): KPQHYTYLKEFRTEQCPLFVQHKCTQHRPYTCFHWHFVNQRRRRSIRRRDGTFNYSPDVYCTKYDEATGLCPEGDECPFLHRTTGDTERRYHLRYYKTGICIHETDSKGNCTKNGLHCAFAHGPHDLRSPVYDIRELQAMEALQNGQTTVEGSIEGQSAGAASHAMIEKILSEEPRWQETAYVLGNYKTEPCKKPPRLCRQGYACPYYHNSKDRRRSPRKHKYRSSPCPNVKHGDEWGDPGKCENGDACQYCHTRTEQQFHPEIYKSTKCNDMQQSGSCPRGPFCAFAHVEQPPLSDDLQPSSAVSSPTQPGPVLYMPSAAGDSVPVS
Setting: RNA with constant flanks, vertebrate orthologous sites, ends assumed
All sequences stand within: GGGAGUUCUACAGUCCGACGAUC … CAACAGAGGAUUGAGCAUCA
Strand | bound/input enrichment [ratio]
CUGUUGUGUGAAAUAUGUCUACCAAGAGAAGUAUCACACCAUAAACAUUGUCAAAUAAUUUAGCUACAGUCUUAGAUACCAAAUUAUAUGUCAGGCAUUUAAAGUGAAUUUGAGAUGAAA | 1.17
AUCUCUCACUUACCUGAGUCCGAAUCCGCUAUGAGGGUUUGAAACAUUUCAUGUUUCAUGUUAAACUACACUGGCAGGUGCUCAAAUACCAUCAUAGCGAGAUGAAAUACCAUCACAGUA | 0.909
AGCUAAAAGGAGUUAGCAUCUUUAUUUUUGUAUCAAAGAUAAAGAUUAUUUUGAAACUAUUGGGAUUUUUACACAGCUCUGAAAUCUGUUGCUUUUGUAAACAAGUUGUUUGAUCUUGGG | 0.657
AUUCAUCUCUCACUUAGUGUCCAAAAUUACUGAGGGUUUGAAACAUUCAAUAGUUUCACAUAGAGCUACACUGGCAGGUGAUUUAAUACUAUCCUAGUGAGAUCAGAUACCAUUGUAGUA | 0.975
UUUUGGUAUGAAGCUGCAUACCAAUACUCAUCCUCUUUUUUUCAUUAUACCAACUAUCCCUAGAAAUAGGAGUUUAAUAUUUUUCAAAAUUUUACAUUGCUGUAUAGUCAAAAUUUUAAA | 0.712
UGCAUAAUGCUGUUCUUACCAAAAGCAGACGCAAGUGAUCAAAUUCUUCAAUAGUAUUUCCCACCUAUCCUCCCGUUCUGGUCCACCAGUGCUUUCAACUGUUAGAACUCUUGGUUUUUC | 0.974
ACUGUUGUUAAGCACUGUGUUCCAGACCGUGGCUGACGUAGUGUAACCUAGGUGAUCUAGUUUCAUUCGGAUGGACUCGGGGUGGGGGAGCAGGGCAGCCCCGCCCCUUCCCGUGUCCCG | 0.527

Set 3 — target: CCNB2, cyclin fold, Cln2 fusion (human); technique: yeast growth competition, sequencing; matrix: yeast; setting: weak parent motif; baseline: not given; direction: higher = stronger binding
Starting sequence: E2F1 docking peptide (human); PPVKRRLDLETDH; partner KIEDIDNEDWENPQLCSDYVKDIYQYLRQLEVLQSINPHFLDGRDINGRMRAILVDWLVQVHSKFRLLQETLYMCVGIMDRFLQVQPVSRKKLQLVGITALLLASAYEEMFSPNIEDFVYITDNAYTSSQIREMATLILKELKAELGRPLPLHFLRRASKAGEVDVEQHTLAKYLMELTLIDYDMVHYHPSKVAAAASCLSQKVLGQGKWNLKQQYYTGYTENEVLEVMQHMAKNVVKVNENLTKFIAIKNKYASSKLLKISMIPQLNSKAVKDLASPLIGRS
Change | normalised enrichment score
T11C | 0.338
L7T | 0.34
R6G | -0.0322
D12H | -0.16
D8R | 0.235

Further values, each from its own experiment
Molecule | target | assay | system | setting | how to read | endpoint | result
PhoQ, residues 284 288 289 292 302 303 WVSSAF | PhoP, residues 12 14 15 18 19 DLLYY (Escherichia coli, UniProt P23836) | Sort-seq, item: YFP reporter | E. coli | PhoQ-PhoP variant library, added: 10 µM Mg2+ | baseline: high Mg2+ state, higher = stronger signaling | fold induction | 1.23
